# Results gathered from unrelated publications.
# Protocols differ between the studies behind these lines. “And” joins repeats or separate records; there may be more than shown. Numbers after ± are the reported error.
SMILES,assay,test system,conditions,scale,measurement,value
N#Cc1ccc(-c2cnc3ccc(-c4ccc(C(=O)N5CCOCC5)cc4)cn23)cc1,measured: QRS interval,healthy volunteers,"oral, 10 mg, fasted, time-averaged",,placebo-corrected change from baseline,3.7 ms
[H]/N=C(/N)N[C@H]1[C@H](O)[C@@H](O)[C@H](O[C@@H]2O[C@@H](C)[C@](O)(C=O)[C@H]2O[C@@H]2O[C@@H](CO)[C@H](O)[C@@H](O)[C@@H]2NC)[C@@H](N/C(N)=N\[H])[C@@H]1O,starch gel membrane permeability,Gram-negative envelope surrogate,"200 µM, 45 min, pH 7.4",,amount permeated,1.34 nmol
COc1ccc2c3c([nH]c2c1)[C@H](CC(C)C)N1C(=O)[C@H](CC(=O)NC(C)C)NC(=O)[C@@H]1C3,,"wild-type mouse, male, serum","oral, 100 mg/kg, 4 h",,serum concentration,13100 nM and 10300 nM and 10900 nM
Cc1nc(-c2ccc(OCC(C)C)c(C#N)c2)sc1C(=O)O,,"human, plasma","oral, 20 mg once daily, added: verinurad 2.5 mg",,AUC(0-24),2570 ng·h/mL
CCc1cc(C(=O)NC)c2nccc(N3CCc4c(cc(Cn5ccnc5)cc4-c4cn(C)nc4C(F)(F)F)C3=O)c2c1,,Sprague Dawley rat,"oral, 100 mg/kg twice daily, 7 days",reference: vehicle,lung weight change,-5.55%
Cc1c2oc3c(C)ccc(C(=O)N[C@@H]4C(=O)N[C@H](C(C)C)C(=O)N5CCC[C@H]5C(=O)N(C)CC(=O)N(C)[C@@H](C(C)C)C(=O)O[C@@H]4C)c3nc-2c(C(=O)N[C@@H]2C(=O)N[C@H](C(C)C)C(=O)N3CCC[C@H]3C(=O)N(C)CC(=O)N(C)[C@@H](C(C)C)C(=O)O[C@@H]2C)c(N)c1=O,LC-MS,"children with cancer, plasma","dose not given, 24 h",,median plasma concentration,1.8 µg/L
NC1(C(=O)N[C@@H](CCO)c2ccc(Cl)cc2)CCN(c2nc[nH]c3nccc2-3)CC1,,metastatic CRPC patients,"400 mg b.i.d., grade 3 to 4, treatment-related, added: enzalutamide 160 mg daily",,incidence of Nausea,0%
Cc1c(Cl)c(C)[n+]([O-])c(Cl)c1-c1noc(-c2cc(O)c(O)c([N+](=O)[O-])c2)n1,,healthy Chinese subjects,"oral, 25 mg",,TEAE leading to discontinuation,0%
Cc1cc(Nc2cc3ncccc3c(N[C@@H]3C[C@H]4CC[C@@H](C3)N4CCC#N)n2)n[nH]1,,healthy human subjects,"oral, 10 mg, 2 weeks, single ascending dose",,sneezing incidence,0%
Cc1ccc([C@@H]2O[C@H](CO)[C@@H](O)[C@H](O)[C@H]2O)cc1Cc1ccc(-c2ccc(F)cc2)s1,measured: inorganic phosphorus,Japanese type 2 diabetes patients,"400 mg, day 17, 24 h urine collection",reference: baseline,urinary phosphate excretion change,92.1 mg
O=C(N[C@H](CO)[C@H](O)c1ccc([N+](=O)[O-])cc1)C(Cl)Cl,starch gel membrane permeability,Gram-negative envelope surrogate,"200 µM, 30 min, pH 7.4",,amount permeated,2.56 nmol
OCCc1ccc(O)cc1,,human plasma,median,,plasma concentration,881 nM
CCN1/C(=C/C(C)=O)Sc2ccc(F)cc21,,cynomolgus monkey,"oral, 100 mg/kg, 2 h post-dose",,mean blood pressure,86 ± 4 mmHg
CSc1ccccc1C(=O)NCCn1cc(C(=O)NCc2cccc(C)n2)c(=O)c2cc3c(cc21)OC(F)(F)O3,,"Sprague-Dawley rat, male, plasma","intravenous, 20 mg/kg of parent drug",,Tmax,0.19 ± 0.05 h
O=C(Nc1ccc(OC(F)(F)Cl)cc1)c1cnc(N2CC[C@@H](O)C2)c(-c2ccn[nH]2)c1,,rat liver microsomes,"1 µM, pH 7.4, 37 °C, added: NADPH 1 mM, shikonin 10 µM",,in vitro half-life,12.5 ± 3.48 h
CNC(=O)c1ccc(-c2cnc3ncc(Cc4ccc5ncccc5c4)n3n2)cc1F,"measured: Cough, all grades",hepatocellular carcinoma patients,"oral, 600 mg twice daily, expansion cohort, any causality",,patients with adverse event,0%
COc1ccc2[nH]c([S+]([O-])Cc3ncc(C)c(OC)c3C)nc2c1 (stereo not shown),,"human male, plasma and dried plasma spots","oral, 5 mg, 4 h, baseline session",,R/S ratio,0.67
COc1ncc(-c2nc3c(n2C(C)C)[C@H](c2ccc(Cl)cc2)N(c2cc(Cl)cn(C)c2=O)C3=O)c(OC)n1,LC-MS/MS,"human, plasma","oral, 30 mg, cycle 1 day 1, low-dose arm",,AUC(0-last),2690 ng·h/mL
O=C1NCCc2nc(OCc3cccc(F)c3)ccc21,modified Irwin test,"Sprague-Dawley rat, male","oral, 100 mg/kg, 4 h",higher = stronger effect,pinna reflex loss score,0.6
COc1cc2c(cc1OC)C(=O)C(CC1CCN(Cc3ccccc3)CC1)C2 (stereo not shown),"Bond-Lader VAS, measured: Alertness",human,dose not given,"reference: placebo, direction not given",VAS score change,0.8 mm
Cc1cc(C)c(CNC(=O)c2cc(Cl)c3c(c2C)O[C@@](C)([C@H]2CC[C@H](N(C)C)CC2)O3)c(=O)[nH]1,,human relapsed/refractory NHL,"oral, 200 mg once daily, onset after cycle 1 day 1",,back pain grade ≥3,4.2%
CCCCOc1nc(N)c2c(n1)N(Cc1cccc(CN3CCCC3)c1)CC(=O)N2,measured: decreased appetite,human,"oral, 2 mg",,drug-related TEAE incidence,0%
CCn1cc(C)c2c([C@H](O)c3ccc(C(F)(F)F)nc3)n(C)nc2c1=O,,"rat Sprague-Dawley male, plasma","intravenous, 1 mg/kg",,CL,35.3 ± 2.11 mL/min/kg
NC[C@@]1(CC(=O)O)[C@@H]2CC[C@H]3C[C@@H]2[C@@H]1C3,,"human, normal renal function, plasma",,,unbound fraction,89.9%
CCCCOC(=O)N1CCN(C(=O)[C@H](CP(=O)(O)O)NC(=O)c2cc(N3CC[C@H](OC)C3)nc(-c3ccccc3)n2)CC1,measured: prothrombin time,"human, plasma","8 mg, 24 h post-dose",,change from baseline,0.01 ± 0.06 INR
C[C@H]1CN(C(=O)CC#N)[C@]12CCN(c1ncnc3[nH]ccc13)C2,,"healthy adults, plasma","oral, 1.5 mg single dose, geometric mean",,t1/2,2 h
O=S(=O)(O)Oc1cc(CCO)ccc1O,,human plasma,mean,,plasma concentration,282 nM
CCc1cc2ncc(CN3CCN(c4ccc(C(=O)NC)nc4)CC3)cc2[nH]c1=O,,"male rat, blood","oral, 25 mg/kg/day, 4 weeks",reference: vehicle control,Neutrophils count ratio,0.71
CCc1c(-c2ccccc2)c(-c2ccccc2)nn1-c1ccccc1-c1cccc(OCC(=O)O)c1,,"Sprague-Dawley rat, heart homogenate","oral, 10 mg/kg, 4 h",,concentration,343 ng/mL and 665 ng/mL
N#Cc1ccc2c(c1)[C@H]1CCCN(C(=O)c3ccc4[nH]cnc4c3)[C@H]1C2,,human males,"20 mg, end of trial",,total testosterone level,11 nmol/L
O=C(O)/C=C/c1ccccc1O,,human plasma,mean,,plasma concentration,168 nM
CCCCC[C@H](O)CC[C@@H]1[C@H]2Cc3cccc(OCC(=O)O)c3C[C@H]2C[C@H]1O,LC-MS/MS,"Japanese PAH patients under 56.7 kg, plasma","inhaled, 54 µg",,geometric mean Cmax,1.09 ng/mL
CCCCC1=NC2(CCCC2)C(=O)N1Cc1ccc(-c2ccccc2S(=O)(=O)Nc2noc(C)c2C)c(COCC)c1,,"healthy adult volunteers, plasma","oral, 400 mg, single dose, fed, crushed tablet",,Tmax,5.61 h
C[C@@H](N)c1cc(Cl)ccc1Cn1c(=S)[nH]c(=O)c2[nH]ccc21,,human severe renal impairment,"oral, 2.5 mg single dose",,drug-related adverse events,0%
C[C@H](O)C(=O)C1=Nc2c(nc(N)[nH]c2=O)NC1,,healthy human volunteers,"oral, 20 mg/kg, 4 days, monotherapy",reference: subjects,severe TEAE incidence,0%
Oc1ccc([C@H]2COc3cc(O)ccc3C2)cc1,,human plasma,"mean, both sexes",,plasma concentration,1730 nM
CN[C@H](CC(C)C)C(=O)N[C@H]1C(=O)N[C@@H](CC(N)=O)C(=O)N[C@H]2C(=O)N[C@H]3C(=O)N[C@H](C(=O)N[C@H](C(=O)O)c4cc(O)cc(O)c4-c4cc3ccc4O)[C@H](O)c3ccc(c(Cl)c3)Oc3cc2cc(c3O[C@@H]2O[C@H](CO)[C@@H](O)[C@H](O)[C@H]2O[C@H]2C[C@](C)(N)[C@H](O)[C@H](C)O2)Oc2ccc(cc2Cl)[C@H]1O,starch gel membrane permeability,Gram-negative envelope surrogate,"200 µM, 10 min, pH 7.4",,amount permeated,0.07 nmol
Cc1c(C(=O)O)ccc2c3n(nc12)[C@@H]1[C@H](C3)N(CC2CC2)[C@@]2(C(=O)Nc3cc(Cl)ccc32)[C@H]1c1cccc(Cl)c1F,,human patients phase Ia,"oral, dose not given, all grades, all patients",,back pain incidence,16.7%
COc1ccc(CCC(=O)O)cc1OS(=O)(=O)O,,human plasma,median,,plasma concentration,273 nM
COc1ccc2c(c1)CN(C(=O)CCN1CCC(Cc3ccccc3)CC1)CC[S@@+]2[O-],telemetry,conscious male beagle dogs,"intravenous, NG, 1 h",,PQ interval,89 ± 5 ms
CN1C(=O)[C@@H](NC(=O)c2nnc(Cc3ccccc3)[nH]2)COc2cccnc21,phase I single ascending dose,"human, male and female","oral, 100 mg, fasted",,participants with any TEAE,16.7%
O=C(O)CCc1ccccc1O,,human plasma,median,,plasma concentration,701 nM
CCc1nc(C(N)=O)c(Nc2ccc(N3CCC(N4CCN(C)CC4)CC3)c(OC)c2)nc1NC1CCOCC1,,"Japanese patients, plasma","oral, 200 mg, cycle 1 day 28, multiple doses, mean",reference: single dose,accumulation ratio (AUC),8.1

# A few entries again:
SMILES,assay,test system,conditions,scale,measurement,value
CCN1/C(=C/C(C)=O)Sc2ccc(F)cc21,,cynomolgus monkey,"oral, 100 mg/kg, 2 h post-dose",,mean blood pressure,86 ± 4 mmHg
CSc1ccccc1C(=O)NCCn1cc(C(=O)NCc2cccc(C)n2)c(=O)c2cc3c(cc21)OC(F)(F)O3,,"Sprague-Dawley rat, male, plasma","intravenous, 20 mg/kg of parent drug",,Tmax,0.19 ± 0.05 h
O=C(Nc1ccc(OC(F)(F)Cl)cc1)c1cnc(N2CC[C@@H](O)C2)c(-c2ccn[nH]2)c1,,rat liver microsomes,"1 µM, pH 7.4, 37 °C, added: NADPH 1 mM, shikonin 10 µM",,in vitro half-life,12.5 ± 3.48 h
CNC(=O)c1ccc(-c2cnc3ncc(Cc4ccc5ncccc5c4)n3n2)cc1F,"measured: Cough, all grades",hepatocellular carcinoma patients,"oral, 600 mg twice daily, expansion cohort, any causality",,patients with adverse event,0%
COc1ccc2[nH]c([S+]([O-])Cc3ncc(C)c(OC)c3C)nc2c1 (stereo not shown),,"human male, plasma and dried plasma spots","oral, 5 mg, 4 h, baseline session",,R/S ratio,0.67
